Results gathered from unrelated publications.
Numbered parts are unrelated; each lists some results of a single study. Substitutions count along the parent as printed.

Set 1 — technique: protein binding microarray; molecule type: double-stranded DNA, one strand shown; medium: in vitro; concentration: not given; relative to: not given; direction: higher = stronger binding
Target: Histone acetyltransferase KAT6A, winged helix 2, GST fusion (KAT6A, Homo sapiens, UniProt Q92794, residues 85-181)
Notes: 8-mer, flanks averaged, mean of 2 arrays, mostly near background
Construct (chain): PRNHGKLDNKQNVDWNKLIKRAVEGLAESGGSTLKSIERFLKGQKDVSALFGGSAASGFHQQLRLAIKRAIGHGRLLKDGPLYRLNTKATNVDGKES
With `AATAGCGC` the E-score was -0.0399.
`CAATTCTC` has an E-score of 0.0306.
For `CCCCCACC`, the E-score was -0.0384.
With `GCCAAGGA` the E-score was -0.175.
The E-score of `ATGGACTG` is reported as -0.161.
With `GGTTCGGA` the E-score was 0.0575.
The E-score of `ACGCAGCT` is reported as 0.0582.
The E-score of `AAAGGCAG` is reported as -0.00626.
`AGCATTAG` has an E-score of -0.0169.
With `ATGGCGGG` the E-score was 0.164.
`CCTCAAGC` gave an E-score of 0.0653.
For `ACGGGATC`, the E-score was 0.0459.
`AAGTGGTA` has an E-score of -0.125.
For `CCTCGGAA`, the E-score was 0.0935.
The E-score of `AATGATGG` is reported as -0.197.
With `ATTCAGTC` the E-score was -0.0553.
`ACTCGACC` has an E-score of 0.0629.

Set 2 — target: CCND1, cyclin fold, Cln2 fusion (human); technique: yeast growth competition, sequencing; medium: yeast; notes: strong parent motif; relative to: not given; direction: higher = stronger binding
Starting sequence: PKN2 docking peptide (human); VSAVQKLDFSDTM
For `D11Q`, “normalised enrichment score” read 1.52.
Under “normalised enrichment score”, `S2Y` is recorded as 1.39.
For `K6C`, “normalised enrichment score” read 2.14.
For `D11Y`, “normalised enrichment score” read 1.34.
For `T12V`, “normalised enrichment score” read 2.08.
Under “normalised enrichment score”, `D8I` is recorded as 1.13.
For `M13R`, “normalised enrichment score” read 1.82.
For `A3T`, “normalised enrichment score” read 0.617.
`V1L`: “normalised enrichment score” 0.849.
`F9H` — result for “normalised enrichment score”: -0.0429.
`S10Y` — result for “normalised enrichment score”: 1.01.
`A3E` — result for “normalised enrichment score”: 0.379.
Under “normalised enrichment score”, `S2E` is recorded as 0.218.
`L7M`: “normalised enrichment score” 0.289.
`A3G`: “normalised enrichment score” 0.315.
`S10A` — result for “normalised enrichment score”: 1.7.
`V4S` — result for “normalised enrichment score”: 0.508.
For `A3Q`, “normalised enrichment score” read 0.798.
`V1C`: “normalised enrichment score” 2.2.

Set 3 — technique: RNA Bind-n-Seq; molecule type: RNA; medium: in vitro; concentration: not given; relative to: input RNA pool; direction: higher = stronger binding
Target: RING finger protein unkempt homolog, zinc fingers 1-6, GST-SBP tag (UNK, Homo sapiens, UniProt Q9C0B0, residues 30-357)
Notes: RNA with constant flanks, human and mouse sites, ends assumed
Construct (chain): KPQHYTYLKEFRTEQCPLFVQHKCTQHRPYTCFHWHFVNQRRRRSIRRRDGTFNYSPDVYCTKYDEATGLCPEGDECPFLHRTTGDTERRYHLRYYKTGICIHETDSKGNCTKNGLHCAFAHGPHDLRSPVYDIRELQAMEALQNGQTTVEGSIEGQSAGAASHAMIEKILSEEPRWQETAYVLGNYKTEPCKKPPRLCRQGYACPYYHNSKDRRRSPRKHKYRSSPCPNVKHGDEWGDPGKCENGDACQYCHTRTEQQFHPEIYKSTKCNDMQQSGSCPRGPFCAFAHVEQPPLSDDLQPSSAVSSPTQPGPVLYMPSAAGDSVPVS
With `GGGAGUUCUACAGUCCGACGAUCCGUGGGAUCUCCUGGAAGGACGAGGCCCGGGUGGUGAAGUGGGCUCUGGAGAAGCUGGAGCUGACCAAGUACGCAGACAAGCCGGCUGGCACCUACAGCGGCGGCAACAAGCGGAAGCUCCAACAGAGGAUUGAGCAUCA` the bound/input enrichment was 0.181 ratio.
`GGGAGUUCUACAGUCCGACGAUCUGGAUGAAUUUUUAGUGAAAAAUGAUCCCUGCCGAGCACGAGGUAGAACUAACAUUGAACUUAGAGAGAAAUUCAUCCUACCAGAGGGAGCAUCCCAGGGAAUGACCCCCUUCCGCUCACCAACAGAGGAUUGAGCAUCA` gave a bound/input enrichment of 0.352 ratio.
The bound/input enrichment of `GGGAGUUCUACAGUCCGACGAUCGACAAGUUUGAAAAACUUGUACAGACUGUGAGAGAUUAUCAUGCAACUUGGAAAACUGUUAGUAAUAAAUUAAAAAAUCAUCCUGAUUAUGAAGAAUAUAUCAACUUAGAGGGAACAAGACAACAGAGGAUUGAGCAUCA` is reported as 7.8 ratio.
For `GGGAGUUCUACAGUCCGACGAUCUUGUAGAUGGCAUUAUUUGGCUCAGAUUCAUCGUGCCUUGGGCAGAAUGAGGAAAUGUGUAUUAGACGCCUAACUACUGAGGUUCAUACUGAUUUGGUUGUCUUUGAUGGCUGUGACAUGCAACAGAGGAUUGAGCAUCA`, the bound/input enrichment was 0.261 ratio.
With `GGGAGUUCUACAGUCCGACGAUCUUAAAAAUAGAAAAGGUCCUCAAGAGAAUGAGAGAAAUAAAAAAUGAACUUCUCCAAGCACAAAACCCUUCUGAAUUGUACCUGAGCUCCAAAACAGAAUUGCAGGGUUUAAUUGGACAGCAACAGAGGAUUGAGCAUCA` the bound/input enrichment was 0.429 ratio.
With `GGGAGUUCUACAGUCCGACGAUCCCUCCGCCCUGGCCCGGCCGCCGGGCCACCCGGCCGCGACACAGACGCUAGCCACGAGCCGGAGCCGUGAGCUGGAGCCAAGCGCGCUGAGGGCUGGACAGUCAGGCCUGGUCCCCACCACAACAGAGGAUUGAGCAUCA` the bound/input enrichment was 0.0535 ratio.
With `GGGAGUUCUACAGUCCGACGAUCUCCGUGCCAGCGCCCUGUGCUGUGUCGGCAGCAUUUGAACGUUCCCCUUCCCCGGUCCAUUUACCUGAGGAUCCCAAGGUGGCAGAAAAGCAGAGGGAAACUCAGAGUGUGGACAGACUCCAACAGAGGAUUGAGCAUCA` the bound/input enrichment was 0.135 ratio.
`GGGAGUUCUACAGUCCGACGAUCAAUAACGUCUAUUGAUGUAGAGGGUCAAAUGAAGAACAAAUAGUAGCUGCUGCUACUUGACUGGAAAGGUAAAUGUGUUUACAUCAUGCUGUGGAACAGCUCUAAACAGUCUAUGUAGAACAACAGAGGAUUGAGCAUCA` gave a bound/input enrichment of 0.281 ratio.
The bound/input enrichment of `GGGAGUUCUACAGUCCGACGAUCAUUCUGAGGUAUAUCUGCUGCCUUGGAAGACAUAAGAAGCAGUGAUACUCCCUGGCUCGGUUAUUUUCUCCAUACAAUGCACACAUGGUACAAUGAUAGAAGGCAAAAUUGCCACUGUCUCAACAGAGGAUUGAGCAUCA` is reported as 0.0958 ratio.
`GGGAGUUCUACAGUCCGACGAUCUGUAUCUACACUGCAGUGAUGGUGCGAAGGGUGAUCCUGGCCCAAGGAGAUAACAAGGUCGAUGACAGAGACUAUUAUGGCAACAAACGACUGGAAUUGGCAGGACAGCUCUUAUCUCUUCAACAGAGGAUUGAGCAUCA` gave a bound/input enrichment of 0.203 ratio.
`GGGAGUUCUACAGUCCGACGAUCGGACAGUCUCAGCCCCCCCUCCAACAGAAUCAGACUUCAUCGCCUGAUUCUUCCAAUGAAAAUUCCCCGGCAACUCCCCCAGAUGAGCAAGGUCAAGGUGAUGCCCCACCACAGCUUGAACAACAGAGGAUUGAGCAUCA` has a bound/input enrichment of 0.541 ratio.

Set 4 — technique: DHFR PCA, deep sequencing; medium: yeast; with: (+)-ABA 1.4 µM; relative to: wild-type fitted maximum; direction: higher = stronger binding
Target: ABI1, truncated, D143A, DHFR fusion (Arabidopsis thaliana)
Notes: methotrexate growth selection, single substitutions
Starting sequence: PYL1, truncated, DHFR fusion (Arabidopsis thaliana); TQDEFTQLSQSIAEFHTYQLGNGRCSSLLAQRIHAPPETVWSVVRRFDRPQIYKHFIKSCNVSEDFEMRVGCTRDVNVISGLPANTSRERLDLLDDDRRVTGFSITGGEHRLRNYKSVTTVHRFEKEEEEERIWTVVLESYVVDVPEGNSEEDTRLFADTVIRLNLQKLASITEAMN; partner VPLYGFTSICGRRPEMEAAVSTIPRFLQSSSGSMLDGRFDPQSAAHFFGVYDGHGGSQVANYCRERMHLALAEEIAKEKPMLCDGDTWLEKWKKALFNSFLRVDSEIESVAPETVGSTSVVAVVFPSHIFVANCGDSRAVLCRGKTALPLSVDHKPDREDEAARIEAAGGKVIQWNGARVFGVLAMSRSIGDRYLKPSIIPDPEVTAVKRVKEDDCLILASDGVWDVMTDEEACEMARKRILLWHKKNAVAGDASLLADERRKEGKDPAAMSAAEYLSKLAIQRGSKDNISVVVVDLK
`E147K` — result for “relative binding score”: 32.5%.
For `F66N`, “relative binding score” read 20.7%.
Under “relative binding score”, `D3Q` is recorded as 53.4%.
Under “relative binding score”, `N114E` is recorded as 1.31%.
`V44R`: “relative binding score” -15.9%.
`E151A` — result for “relative binding score”: 66.1%.
`L93Y`: “relative binding score” 35.8%.
For `N165S`, “relative binding score” read 9.65%.
`Q2S`: “relative binding score” 65.3%.
Under “relative binding score”, `F56L` is recorded as 35.8%.
Under “relative binding score”, `A13N` is recorded as 40.4%.
For `F15G`, “relative binding score” read -6.06%.
Under “relative binding score”, `T1Q` is recorded as 61.1%.
`Q10V` — result for “relative binding score”: 46.7%.
Under “relative binding score”, `R98M` is recorded as 36.8%.
Under “relative binding score”, `Q7C` is recorded as 62.2%.
For `I105V`, “relative binding score” read 52.8%.

Set 5 — target: CEBPD, bZIP domain (human); technique: DHFR protein complementation; medium: yeast; relative to: wild-type JUN-FOS pair; direction: higher = stronger binding
Notes: single substitutions, most at no-binding floor
Starting sequence: JUN, bZIP domain (human); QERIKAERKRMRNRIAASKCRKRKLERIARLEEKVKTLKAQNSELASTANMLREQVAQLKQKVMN; partner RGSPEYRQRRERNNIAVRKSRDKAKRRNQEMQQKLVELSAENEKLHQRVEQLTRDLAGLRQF
With `T37Y` the binding fitness was -1.34 natural log.
The binding fitness of `Q55W` is reported as -1.41 natural log.
The binding fitness of `T37L` is reported as -1.26 natural log.
The binding fitness of `Q55R` is reported as -1.39 natural log.
For `R53N`, the binding fitness was -1.3 natural log.
`M51K` gave a binding fitness of -1.29 natural log.
`A40P` has a binding fitness of -1.49 natural log.
For `T48V`, the binding fitness was -1.43 natural log.
`K39P` gave a binding fitness of -1.48 natural log.
`V56E` has a binding fitness of -1.44 natural log.
For `E54L`, the binding fitness was -1.37 natural log.
`M51L` has a binding fitness of -1.28 natural log.
For `T37W`, the binding fitness was -1.31 natural log.
With `E44M` the binding fitness was -1.37 natural log.
`V56P` gave a binding fitness of -1.46 natural log.
The binding fitness of `K36W` is reported as -1.14 natural log.
The binding fitness of `L45V` is reported as -1.48 natural log.
With `R53F` the binding fitness was -1.04 natural log.
With `L45R` the binding fitness was -1.51 natural log.
`A57M` gave a binding fitness of -1.41 natural log.
The binding fitness of `E32A` is reported as -1.29 natural log.
`E32I` has a binding fitness of -1.29 natural log.
For `A49P`, the binding fitness was -1.52 natural log.
With `Q41E` the binding fitness was -1.34 natural log.
The binding fitness of `S43I` is reported as -1.28 natural log.

For quick reference, copied from above (set 4):
`E147K` — result for “relative binding score”: 32.5%.
For `F66N`, “relative binding score” read 20.7%.
Under “relative binding score”, `D3Q` is recorded as 53.4%.
Under “relative binding score”, `N114E` is recorded as 1.31%.
`V44R`: “relative binding score” -15.9%.
`E151A` — result for “relative binding score”: 66.1%.
`L93Y`: “relative binding score” 35.8%.
For `N165S`, “relative binding score” read 9.65%.
`Q2S`: “relative binding score” 65.3%.
Under “relative binding score”, `F56L` is recorded as 35.8%.
Under “relative binding score”, `A13N` is recorded as 40.4%.
